Results of several laboratories.
Numbered parts are unrelated; each lists some results of a single study. Substitutions count along the parent as printed.

Study 1 — technique: universal PBM; molecule type: double-stranded DNA, one strand shown; matrix: in vitro; concentration: 600 nM; direction: higher = stronger binding
Target: Sal-like protein 4, full length isoform A (SALL4, Homo sapiens, UniProt Q9UJQ4, residues 1-1053)
Sequence of UniProt Q9UJQ4 (whole entry, looked up): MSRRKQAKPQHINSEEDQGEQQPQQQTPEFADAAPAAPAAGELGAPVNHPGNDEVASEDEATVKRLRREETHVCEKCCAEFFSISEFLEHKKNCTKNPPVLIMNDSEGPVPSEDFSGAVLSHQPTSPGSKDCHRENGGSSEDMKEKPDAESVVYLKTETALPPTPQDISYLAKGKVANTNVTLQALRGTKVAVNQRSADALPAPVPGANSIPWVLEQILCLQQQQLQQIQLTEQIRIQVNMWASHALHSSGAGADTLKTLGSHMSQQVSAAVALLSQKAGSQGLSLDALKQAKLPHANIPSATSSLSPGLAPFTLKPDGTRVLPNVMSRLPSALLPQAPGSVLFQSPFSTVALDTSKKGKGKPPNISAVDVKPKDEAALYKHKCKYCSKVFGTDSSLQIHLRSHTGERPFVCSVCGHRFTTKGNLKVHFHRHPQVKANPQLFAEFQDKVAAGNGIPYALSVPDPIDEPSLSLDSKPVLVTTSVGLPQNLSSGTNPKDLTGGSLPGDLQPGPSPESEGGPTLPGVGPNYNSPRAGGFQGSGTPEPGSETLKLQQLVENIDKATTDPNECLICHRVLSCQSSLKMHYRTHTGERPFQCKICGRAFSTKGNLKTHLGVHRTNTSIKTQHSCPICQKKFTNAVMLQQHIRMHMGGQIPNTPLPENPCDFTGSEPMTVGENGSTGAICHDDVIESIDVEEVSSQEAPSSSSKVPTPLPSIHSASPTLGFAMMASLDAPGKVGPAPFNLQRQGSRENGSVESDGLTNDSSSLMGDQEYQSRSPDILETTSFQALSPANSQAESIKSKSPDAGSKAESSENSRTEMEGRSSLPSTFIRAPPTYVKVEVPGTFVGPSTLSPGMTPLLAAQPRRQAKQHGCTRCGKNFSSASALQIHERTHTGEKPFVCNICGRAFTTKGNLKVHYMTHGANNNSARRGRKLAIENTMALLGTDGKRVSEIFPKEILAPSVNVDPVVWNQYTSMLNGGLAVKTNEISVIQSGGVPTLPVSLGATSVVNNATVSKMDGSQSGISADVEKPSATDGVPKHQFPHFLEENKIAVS
Setting: 8-mer, flanks averaged, mean of replicates
Strand | E-score
CTTAAACC | -0.0597
AGACCTGC | -0.138
ACTTTCAT | 0.215
CGTCGACA | -0.205
ACGCAACT | -0.0331
CAACAAAC | -0.127
TCACGGCA | -0.0789
GCTAAAGC | -0.0836
ACCCTCGT | -0.221
TAATCGGA | 0.104
CGCTAGGA | -0.168
ACGGCCGC | -0.297
AAATTGAT | 0.259
CGGATGCA | -0.0982
CTACACCC | -0.255
AGAGGCGG | -0.139
ATTGAGTA | 0.311
AAGTACCA | 0.0678
AGTGGTTA | 0.0874
CCTTGTTA | 0.257
CGTGTAAG | -0.0197
CCGCGAAC | -0.274
AGCTTATA | 0.276
GCTATGCC | -0.0858
TAACCCAA | 0.106

Study 2 — target: CCNE2, cyclin fold, Cln2 fusion (human); technique: yeast growth competition, sequencing; matrix: yeast; setting: weak parent motif; baseline: not given; direction: higher = stronger binding
Parent: BORA docking peptide (human); SSLRRKLFLDGNG; partner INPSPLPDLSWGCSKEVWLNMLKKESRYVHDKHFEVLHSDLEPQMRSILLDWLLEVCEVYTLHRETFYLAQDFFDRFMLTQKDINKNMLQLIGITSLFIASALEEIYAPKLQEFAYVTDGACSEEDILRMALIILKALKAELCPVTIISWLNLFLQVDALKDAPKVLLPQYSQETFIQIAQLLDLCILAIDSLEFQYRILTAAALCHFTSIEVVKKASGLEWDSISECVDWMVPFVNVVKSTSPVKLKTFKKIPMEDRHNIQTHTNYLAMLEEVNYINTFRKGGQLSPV
Variant | normalised enrichment score
SSLRRKLLLDGNG [F8L] | 0.925
SALRRKLFLDGNG [S2A] | 1.03
SSLRRKLFLAGNG [D10A] | 0.363
SSLRRALFLDGNG [K6A] | 0.848
SSLRKKLFLDGNG [R5K] | 1.07
SSLARKLFLDGNG [R4A] | 0.349
SSLRAKLFLDGNG [R5A] | 0.578
ASLRRKLFLDGNG [S1A] | 1.01

Study 3 — technique: protein binding microarray; molecule type: double-stranded DNA, one strand shown; matrix: in vitro; concentration: not given; baseline: not given; direction: higher = stronger binding
Target: Histone acetyltransferase KAT6A, winged helix 1, GST fusion (KAT6A, Homo sapiens, UniProt Q92794, residues 1-85)
Setting: 8-mer, flanks averaged, mean of 2 arrays, mostly near background
Target sequence (chain): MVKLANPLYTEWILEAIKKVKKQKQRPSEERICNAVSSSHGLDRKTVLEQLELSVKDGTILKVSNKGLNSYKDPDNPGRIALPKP
Strand | E-score
GCGATAGC | 0.138
ATATTACC | 0.0365
ATCACGTG | -0.162
CCTCTCCA | -0.167
CATTCAAG | -0.143
CCTATCAG | -0.178
CCTCGTAC | 0.141
AGATCGGA | -0.0436
GGCAATGA | -0.0612
GACCTTGC | -0.042
GATAGACC | 0.0594
AAATACTA | -0.112
GGACGCAC | 0.204
AATAGCAT | -0.131
ATCGTCCA | -0.0454
GTGTCATA | -0.231
CAACCGCG | 0.328
AGCCGTAC | 0.366
ACCACAGT | -0.177
CACAATCG | 0.0897
ACAAGCAT | -0.215
CCCTTTGC | -0.0557
GTTATTAA | 0.074
GACTAAAC | -0.0504
AGCACTGC | 0.107

Study 4 — technique: protein-binding microarray; molecule type: double-stranded DNA, one strand shown; matrix: in vitro; concentration: 2200 nM top; setting: 60-bp whole probe; with: salmon DNA 0.4 mg/ml; baseline: random background probes; direction: higher = stronger binding; shared flanks, not repeated: GCCTAGCAC … GTCTTGATTCGCTTGACGCTGCTG
Target: Interferon regulatory factor 7, full length, phosphomimetic (IRF7, Homo sapiens, UniProt Q92985, residues 1-503, S471D/S472D/S475D/S476D/S477D/S483D/S484D/S487D)
Construct (chain): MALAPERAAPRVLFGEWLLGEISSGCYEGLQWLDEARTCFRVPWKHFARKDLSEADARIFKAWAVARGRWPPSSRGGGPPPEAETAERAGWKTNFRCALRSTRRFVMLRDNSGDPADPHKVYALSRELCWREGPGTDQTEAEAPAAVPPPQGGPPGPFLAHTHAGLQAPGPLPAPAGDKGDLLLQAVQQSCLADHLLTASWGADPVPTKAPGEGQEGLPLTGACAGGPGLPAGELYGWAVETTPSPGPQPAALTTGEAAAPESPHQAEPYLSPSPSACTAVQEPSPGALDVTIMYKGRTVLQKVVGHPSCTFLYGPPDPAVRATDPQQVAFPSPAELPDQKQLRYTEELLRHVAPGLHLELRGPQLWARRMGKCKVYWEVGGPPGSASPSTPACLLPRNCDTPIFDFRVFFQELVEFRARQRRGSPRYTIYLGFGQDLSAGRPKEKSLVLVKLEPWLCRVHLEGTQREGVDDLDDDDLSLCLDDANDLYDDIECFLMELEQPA
Strand | fitted relative affinity
GACGGTCTCGGTATCGGAACGTGCTAG | 0.252 z-score
TTAGGTTTGGACTTTCGGTTAGTGCTA | 5.66 z-score
GACGGTTTCGACTATGGGGACGTGCTA | 3.39 z-score
GCGGGAGAAAGCAAGCCCAGGTGCTAG | -0.807 z-score
TCTCATTCCAATTCTTTTTATGTGCTA | 1.66 z-score
GACGGTTTCGGACTGGGGCCGTGCTAG | 3.51 z-score
GACGGTTTCCTTCTCCTGAGGTGCTAG | 2.65 z-score
TTACGTTTCCTTTTCCTTTAGTGCTAG | 7.9 z-score
GACGGTTCCGGTTTCGGGACGTGCTAG | 5.63 z-score
GACGGACTGGGAATGGGGACGTGCTAG | -0.868 z-score
GACGATCTCAGTATAGAGACGTGCTAG | -0.053 z-score
TTAGGTTCCGGGTTTCGGTTAGTGCTA | 5.04 z-score

A few entries again (study 4):
Strand | fitted relative affinity
GACGGTCTCGGTATCGGAACGTGCTAG | 0.252 z-score
TTACGTTTCCTTTTCCTTTAGTGCTAG | 7.9 z-score
TTAGGTTTGGACTTTCGGTTAGTGCTA | 5.66 z-score
GACGGTTCCGGTTTCGGGACGTGCTAG | 5.63 z-score
GACGGTTTCGACTATGGGGACGTGCTA | 3.39 z-score
TTAGGTTCCGGGTTTCGGTTAGTGCTA | 5.04 z-score
GACGGTTTCCTTCTCCTGAGGTGCTAG | 2.65 z-score
GACGGTTTCGGACTGGGGCCGTGCTAG | 3.51 z-score
